Results collected from several papers.
Protocols differ between the studies behind these lines.

Compound | host | sample | route | dose | notes | measurement | result
O=c1c2cc(Cl)ccc2sc2c(NCc3ccccc3)nc3ccccc3c12 | male Sprague-Dawley rat | plasma | intravenous | 3 mg/kg | single dose | AUC | 2420 ng·h/mL
Cc1cc(/C=C/C#N)cc(C)c1Oc1nc(NC2CCN(Cc3ccc(P(C)(C)=O)cc3)CC2)nc2ccsc12 | male Sprague-Dawley rat | plasma | oral | 10 mg/kg | – | AUC | 1270 ng·h/mL
Cc1ccc(OCC(=O)N(Cc2cccs2)c2ccn[nH]2)cc1 | female Sprague-Dawley rat | plasma | oral | 100 mg/kg | single dose | AUC(0-t) | 157 ng·h/mL
NC(COc1ccccc1C(F)(F)F)c1ccccc1 (centres unmarked) | male Sprague-Dawley rat | serum | intravenous | 5 mg/kg | – | AUC | 544 ng·h/mL
C#Cc1cccc(Nc2ncnc3cc(OC)c(OCCCN4CCOCC4)cc23)c1 | Sprague-Dawley rat | plasma | intravenous | 10 mg/kg | – | AUC | 6110 ng·h/mL
CC1(C)CNC(=O)c2ccccc21 | rat | plasma | intravenous | 1 mg/kg | single dose | AUC(0-inf) | 943 ng·h/mL
CN1Cc2c(Cl)cc(Cl)cc2C(c2cccc(S(=O)(=O)NCCOCCOCCOCCNC(=O)C(O)C(O)C(=O)NCCOCCOCCOCCNS(=O)(=O)c3cccc(C4CN(C)Cc5c(Cl)cc(Cl)cc54)c3)c2)C1 (centres unmarked) | male Sprague-Dawley rat | plasma | oral | 9.4 mg/kg | – | AUC | 6 ng·h/mL
N#Cc1cnc2cc(OCC3CCNCC3)c(F)cc2c1Nc1cc(F)c(OCc2cccc(Cl)n2)cc1Cl | male Sprague-Dawley rat | plasma | oral | 30 mg/kg | – | AUC(0-t) | 1300 ng·h/mL
CSCOC1C(=O)C2(C)C(OCSC)CC3OCC3(OC(C)=O)C2C(OC(=O)c2ccccc2)C2(O)CC(OC(=O)C(O)C(C=C(C)C)NC(=O)OC(C)(C)C)C(C)=C1C2(C)C (centres unmarked) | female Sprague-Dawley rat | plasma | intravenous | 4 mg/kg | – | AUC(0-inf) | 1050 ng·h/mL
CN1Cc2c(Cl)cc(Cl)cc2C(c2cccc(S(=O)(=O)NCCNC(=O)C(O)C(O)C(=O)NCCNS(=O)(=O)c3cccc(C4CN(C)Cc5c(Cl)cc(Cl)cc54)c3)c2)C1 (centres unmarked) | male Sprague-Dawley rat | plasma | oral | 11 mg/kg | – | AUC | < 10 ng·h/mL
CCCCC1NC(=O)c2ccccc21 (racemic) | Wistar rat | plasma | oral | 10 mg/kg | – | AUC | 12800 ng·h/mL
